Results pooled from the literature.
Compare with care: the assays were run in different laboratories. ± marks the error that the study gave.

COc1ccccc1OCCNCC(O)COc1cccc2[nH]c3ccccc3c12 (centres unmarked) — inhibition (Lytechinus pictus; cADPR-induced Ca2+ release, inhibitor, Fluo-3 fluorimetry; egg homogenate; concentration not given, maximal extent, high concentration, added: cADPR 0.3 µM): 82%
Cc1cc(C)cc(S(=O)(=O)c2c(C(=O)NCCCCCNS(=O)(=O)c3ccc(C#N)cc3)[nH]c3ccc(Cl)cc23)c1 — EC50 (HIV-1; viral replication; MT-4, IIIB): 0.033 ± 0.0082 µM
CCCCCCOc1ccccc1C(=O)/C=C/C=C/c1ccccc1 — zone of inhibition (Candida tropicalis; MTCC 230; 1000 µg/mL, 18 h): 7 mm
Cc1cc(C)cc(S(=O)(=O)c2c(C(=O)NCCNS(=O)(=O)c3cccc(F)c3)[nH]c3ccc(Cl)cc23)c1 — EC50 (HIV-1; viral replication; MT-4, IIIB): 0.036 ± 0.0036 µM
CCCCOc1ccc(-c2nc(N)[nH]c2C(F)(F)F)cc1 — EC50 (Mycolicibacterium smegmatis; biofilm): 95.2 ± 5.4 µM
CN(C)CCCn1c(=O)c2cc(Br)c3c(=O)n(CCCN(C)C)c(=O)c4c5[nH]c6ccccc6[nH]c5c(c1=O)c2c34 — therapeutic window (HIV-1; TZM-bl, BaL; activity with cytotoxicity below 80%): 15.6 to 125 nM
NC(=O)c1ncn([C@@H]2O[C@H](CO)[C@@H](O)[C@H]2O)n1 — inhibition (Tobacco mosaic virus; inactivation activity; host plant; 500 µg/mL): 54%
Cc1noc(/C=C/c2ccccn2)c1[N+](=O)[O-] — EC50 (Schistosoma mansoni; parasite motility, imaging; 48 h, larva): ~2.5 µM
CC(C)(O/N=C(\C(=O)N[C@H]1CN2CC(C(=O)NCCN3C(=O)c4cc(O)c(O)cc4C3=O)=C(C(=O)O)N2C1=O)c1nc(N)sc1Cl)C(=O)O — susceptible isolates (Acinetobacter; clinical isolates; low iron, breakpoint 4 µg/mL): 86%
Cc1cc(C)cc(S(=O)(=O)c2c(C(=O)NCCNS(=O)(=O)c3cccnc3)[nH]c3ccc(Cl)cc23)c1 — EC50 (HIV-1; viral replication; MT-4, IIIB): 0.0073 ± 0.0016 µM
CNC1=C([N+](=O)[O-])C2(C(=O)Nc3ccc(Br)cc32)c2c(c3ccccc3oc2=O)O1 (centres unmarked) — inhibition (Salmonella enterica; microbial growth; TYPHIMURIUM; 250 µg/mL, 24 h): 37.6%
Cc1cc(C)cc(S(=O)(=O)c2c(C(=O)NCCCCCNS(=O)(=O)c3cccs3)[nH]c3ccc(Cl)cc23)c1 — EC50 (HIV-1; viral replication; MT-4, IIIB): 0.067 ± 0.027 µM
CNC1=C([N+](=O)[O-])C2(C(=O)Nc3ccc(Br)cc32)C2=C(CC(C)(C)CC2=O)O1 (centres unmarked) — inhibition (Salmonella enterica; microbial growth; TYPHIMURIUM; 250 µg/mL, 24 h): 61.4%
O=C(O)c1nc2ccccc2c(=O)n1Cc1cn(-c2ccccc2)nn1 — IC50 (Candida tropicalis; microbial growth, broth dilution; ATCC750; 24 h): 184 µg/mL
CNC(C)C1CCC(N)C(OC2C(N)CC(N)C(OC3OCC(C)(O)C(NC)C3O)C2O)O1 (centres unmarked) — inhibition zone diameter (Bacillus subtilis; IFO 3007; 100 µg/disc, 24 h): 25 mm
Nisin A — inhibition zone diameter (Streptococcus agalactiae; deferred antagonism overlay; ATCC 13813, GM17 agar; concentration not given, produced by spotted strain): 14.1 ± 0.6 mm
Cc1cc(C)cc(S(=O)(=O)c2c(C(=O)NCCCNS(=O)(=O)c3cccs3)[nH]c3ccc(Cl)cc23)c1 — EC50 (HIV-1; viral replication; MT-4, IIIB): 0.057 ± 0.012 µM
O=C(O)c1nc2ccccc2c(=O)n1Cc1cn(-c2ccc(Cl)cc2)nn1 — IC50 (Candida tropicalis; microbial growth, broth dilution; ATCC750; 24 h): 303 µg/mL
Cc1cc(C)cc(S(=O)(=O)c2c(C(=O)NCCNS(=O)(=O)c3ccc([N+](=O)[O-])cc3)[nH]c3ccc(Cl)cc23)c1 — EC50 (HIV-1; viral replication; MT-4, IIIB): 0.12 ± 0.029 µM
COc1ccc(-n2cc(Cn3c(C(=O)O)nc4ccccc4c3=O)nn2)cc1 — IC50 (Candida tropicalis; microbial growth, broth dilution; ATCC750; 24 h): 162 µg/mL
N=C(N)c1ccc(OCCCCCOc2ccc(C(=N)N)cc2)cc1 — IC50 (Leishmania tarentolae; viability, resazurin; promastigotes, YEM/PBS; 48 h, 26 °C, added: 10% FCS): 0.36 ± 0.34 µM
NC(=O)c1ncn([C@@H]2O[C@H](CO)[C@@H](O)[C@H]2O)n1 — inactivation activity (tobacco mosaic virus; half-leaf method; tobacco; 500 µg/mL): 72.7 ± 4.7%
Cc1cc(C)cc(S(=O)(=O)c2c(C(=O)NCCCCCNS(=O)(=O)c3ccc(Cl)cc3)[nH]c3ccc(Cl)cc23)c1 — EC50 (HIV-1; viral replication; MT-4, IIIB): 0.01 ± 0.0014 µM
CCOC(=O)c1nc2ccccc2c(=O)n1Cc1cn(-c2ccc(F)cc2)nn1 — IC50 (Candida tropicalis; microbial growth, broth dilution; ATCC750; 24 h): 435 µg/mL
COc1ccc(C(=O)NN=Cc2ccc(O)c3ncccc23)cc1 — EC50 (Enterobacter cloacae; bacterial growth; ATCC 13047; cation-supplemented medium): 100 µM
O=C(O)c1nc2ccccc2c(=O)n1Cc1cn(-c2ccccc2Cl)nn1 — IC50 (Candida tropicalis; microbial growth, broth dilution; ATCC750; 24 h): 211 µg/mL
CCOC(=O)N1CCN(Cn2nc(C34CC5CC(CC(C5)C3)C4)n(-c3ccccc3)c2=S)CC1 — inhibition zone diameter (Bacillus subtilis; IFO 3007; 200 µg/disc, 24 h, 37 °C): 19 mm
CC[C@H]1OC(=O)[C@H](C)[C@@H](O[C@H]2C[C@@](C)(OC)[C@@H](O)[C@H](C)O2)[C@H](C)[C@@H](O[C@@H]2O[C@H](C)C[C@H](N(C)C)[C@H]2O)[C@](C)(O)C[C@@H](C)C(=O)[C@H](C)[C@@H](O)[C@]1(C)O — sensitive strains (Enterococcus; community-acquired pneumonia patients; Fine score 70 or more): 0%
CNC1=C([N+](=O)[O-])C2(C(=O)Nc3ccccc32)C2=C(O1)C(=O)c1ccccc1C2=O (centres unmarked) — inhibition (Salmonella enterica; microbial growth; TYPHIMURIUM; 250 µg/mL, 24 h): 100%
Cc1cccc(-n2cc(Cn3c(C(=O)O)nc4ccccc4c3=O)nn2)c1 — IC50 (Candida tropicalis; microbial growth, broth dilution; ATCC750; 24 h): 223 µg/mL
CC1(C)S[C@@H]2[C@H](NC(=O)[C@H](N)c3ccc(O)cc3)C(=O)N2[C@H]1C(=O)O — sensitive strains (coagulase-negative Staphylococcus; community-acquired pneumonia patients; Fine score below 70): 33.3%
Cc1cc(N)nc(CCc2cc(N)cc(CCc3cc(C)cc(N)n3)c2)c1 — inhibition (Bacillus subtilis; bacterial survival, NOS inhibitor; 500 µM, 0.5 h, added: acriflavine 800 µM): ~99%
CCOC(=O)c1nc2ccccc2c(=O)n1Cc1cn(-c2ccccc2OC)nn1 — IC50 (Candida tropicalis; microbial growth, broth dilution; ATCC750; 24 h): 13.8 µg/mL
CNC1=C([N+](=O)[O-])C2(C(=O)Nc3ccc(Cl)cc32)c2c(c3ccccc3oc2=O)O1 (centres unmarked) — inhibition (Salmonella enterica; microbial growth; TYPHIMURIUM; 250 µg/mL, 24 h): 57.1%
CC[C@H]1OC(=O)[C@H](C)[C@@H](O[C@H]2C[C@@](C)(OC)[C@@H](O)[C@H](C)O2)[C@H](C)[C@@H](O[C@@H]2O[C@H](C)C[C@H](N(C)C)[C@H]2O)[C@](C)(O)C[C@@H](C)CN(C)[C@H](C)[C@@H](O)[C@]1(C)O — sensitive strains (Enterococcus; community-acquired pneumonia patients; Fine score below 70): 0%
COc1ccccc1-n1cc(Cn2c(C(=O)O)nc3ccccc3c2=O)nn1 — IC50 (Candida tropicalis; microbial growth, broth dilution; ATCC750; 24 h): 9.1 µg/mL
CN(C)CCSc1nnc(C23CC4CC(CC(C4)C2)C3)n1C — inhibition zone diameter (Bacillus subtilis; IFO 3007; 200 µg/disc, 24 h, 37 °C): 13 mm
O=S(=O)(Cc1ccccc1)c1nc2ccccc2s1 — EC50 (Schistosoma mansoni; parasite motility; 48 h, adult): ~6 µM

Repeated from above:
O=C(O)c1nc2ccccc2c(=O)n1Cc1cn(-c2ccccc2)nn1 — IC50 (Candida tropicalis; microbial growth, broth dilution; ATCC750; 24 h): 184 µg/mL
CNC(C)C1CCC(N)C(OC2C(N)CC(N)C(OC3OCC(C)(O)C(NC)C3O)C2O)O1 (centres unmarked) — inhibition zone diameter (Bacillus subtilis; IFO 3007; 100 µg/disc, 24 h): 25 mm
Nisin A — inhibition zone diameter (Streptococcus agalactiae; deferred antagonism overlay; ATCC 13813, GM17 agar; concentration not given, produced by spotted strain): 14.1 ± 0.6 mm
Cc1cc(C)cc(S(=O)(=O)c2c(C(=O)NCCCNS(=O)(=O)c3cccs3)[nH]c3ccc(Cl)cc23)c1 — EC50 (HIV-1; viral replication; MT-4, IIIB): 0.057 ± 0.012 µM
